Assay results from different studies.
Each line is one published result; not all experiments were run side by side. Values joined by “and” are separate records of one study, mostly repeats; a detail may differ. pEC50, pKd: −log10 of the molar value.
UniProt Q9Y6I4, sequence (whole entry, looked up): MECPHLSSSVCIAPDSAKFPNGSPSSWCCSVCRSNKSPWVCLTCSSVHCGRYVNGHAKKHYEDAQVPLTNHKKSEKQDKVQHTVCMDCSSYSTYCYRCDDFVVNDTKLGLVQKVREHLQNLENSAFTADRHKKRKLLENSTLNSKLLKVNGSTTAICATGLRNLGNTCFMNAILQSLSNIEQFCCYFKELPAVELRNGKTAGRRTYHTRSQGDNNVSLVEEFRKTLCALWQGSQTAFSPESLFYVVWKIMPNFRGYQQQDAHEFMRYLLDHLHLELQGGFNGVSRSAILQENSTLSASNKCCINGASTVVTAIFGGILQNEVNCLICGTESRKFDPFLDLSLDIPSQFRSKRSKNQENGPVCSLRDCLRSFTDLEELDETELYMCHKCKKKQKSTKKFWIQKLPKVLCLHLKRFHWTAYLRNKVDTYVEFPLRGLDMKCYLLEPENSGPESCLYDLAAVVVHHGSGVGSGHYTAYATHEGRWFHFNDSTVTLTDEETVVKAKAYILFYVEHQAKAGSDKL

`CCc1ccc(Oc2nccc(-c3c(-c4ccc(F)cc4)ncn3C3CCNCC3)n2)cc1` gave a selectivity of 0.8 (Trypanosoma brucei; unit not given; relative to: pEC50 T. brucei minus pTC50 HepG2).
`C[C@H](Oc1ccc(Br)cc1-c1ccon1)C(=O)O` — result for “difference from placebo”: 0.07 mV (mean CMAP amplitude; human, tibialis anterior muscle; 50 mg, SAD).
The pKd of `Nc1nc(CC(=O)O)cs1` is reported as under 3.00 (Ubiquitin carboxyl-terminal hydrolase 3, ZnF-UBD domain (USP3, Homo sapiens, UniProt Q9Y6I4)).
Under “percent change from baseline”, `C[C@H]1C[C@H]2CSC(N)=N[C@@]2(c2nc(NC(=O)c3ccc(OC(F)F)cn3)cs2)CO1` is recorded as -63.1% (item: Aβx-40; healthy adults, plasma; 400 mg single dose, 8 h post-dose; relative to: placebo).
With `CCOc1ccc(NC(=O)c2nc(S(=O)(=O)Cc3ccccc3F)ncc2Cl)cc1` the maximal activity was 78% (Mus musculus; gene silencing, high-content imaging; LDR reporter GFP cells; retest run 2).
`Nc1cccc2c1C(=O)N(C1CCC(=O)NC1=O)C2=O` (stereo not shown) — result for “surface marker level”: 154% (RPMI-8226; flow cytometry, item: CD183; concentration not given; relative to: comparator compound alone).
For `COc1cc(C=NNc2ncnc3c2cnn3-c2ccccc2)ccc1O`, the selectivity was over 1.8 (Trypanosoma brucei; unit not given; relative to: pEC50 T. brucei minus pTC50 HepG2).
`N#CC1=C(N)n2c(s/c(=C\c3cccs3)c2=O)=C(C#N)C1c1cccs1` (stereo not shown) gave a maximal activity of 24% (Mus musculus; gene silencing, high-content imaging; LDR reporter GFP cells; retest run 2).
For `O=C(c1ccc([C@H]2[C@@H](F)[C@@H](F)C[C@@H](F)[C@H]2F)cc1)N1CC(O)C1`, the hepatic clearance was 7.3 mL/min/kg (liver microsome stability; dog liver microsomes; 1 µM).
The maximal activity of `O=[N+]([O-])c1ccc(-c2ccc(/C=N/Nc3nc(N4CCCCC4)nc(N4CCCCC4)n3)o2)cc1` is reported as 30% (Mus musculus; gene silencing, high-content imaging; LDR reporter GFP cells; retest run 1).
`CCn1cc(-c2cc(Cn3ccnc3)cc3c2CCN([C@H](c2cc(OC)ccn2)C2CC2)C3=O)c(C(F)(F)F)n1` gave a pEC50 of 4.83 (HMCB; cell growth, inhibitor; 120 h).
`CCCCOC(=O)Cn1c2ccc(OC)cc2c2nc3ccccc3nc21` has a maximal activity of 21% (Mus musculus; gene silencing, high-content imaging; LDR reporter GFP cells; retest run 1).
For `Nc1nccc(-c2c(-c3ccc(F)cc3)ncn2C2CCC(O)CC2)n1` (stereo not shown), the selectivity was over 1.9 (Trypanosoma brucei; unit not given; relative to: pEC50 T. brucei minus pTC50 HepG2).
With `COc1cnc2cccc(N3CCc4c(cc(Cn5ccnc5C)cc4-c4cn(C)nc4C(F)(F)F)C3=O)c2c1` the pEC50 was 4.71 (KURAMOCHI; cell growth, inhibitor; 120 h).
For `COc1cc2nc(=S)n3[nH]c(CCn4nc(C)cc4C)nc3c2cc1OC`, the maximal activity was 119% (Mus musculus; gene silencing, high-content imaging; LDR reporter GFP cells; retest run 1).
With `CN(c1ccc(NC(=O)Nc2c(Cl)cccc2Cl)cc1)c1ccnc(Nc2cccc(CS(C)(=O)=O)c2)n1` the selectivity was 0.8 (Trypanosoma brucei; unit not given; relative to: pEC50 T. brucei minus pTC50 HepG2).
For `CCn1c(=O)c(-c2cc[nH]n2)cc2c(C)nc(N)nc21`, “inflammatory infiltration score” read 1 (Enterovirus A71; histopathology; EV71-infected suckling mice, spleen; 0.25 mg/kg; direction not given).
The cell protection of `CC(C)n1ncc2c(C(=O)NCC3(C)CNC3)cc(C3CC3)nc21` is reported as 96.6% and 95.4% and 92.8% (Enterovirus D68; cytopathic effect; RD, US/IL/14-18956; 5000 nM).
For `c1coc(-c2n[nH]cc2-c2ccnc3ccccc23)c1`, “log2 fold change” read 0.04 (CTK1 (Candida albicans); kinase binding, MIB/MS competition; Candida albicans lysate; 1 µM; relative to: DMSO).
`Fc1ccc(-c2ncn(C3CCNCC3)c2-c2ccnc(Oc3ccc(Oc4ccccc4)cc3)n2)cc1` gave a selectivity of 1 (Trypanosoma brucei; unit not given; relative to: pEC50 T. brucei minus pTC50 HepG2).
For `CCn1cc(-c2cc(Cn3ccoc3=N)cc3c2CCN([C@@H](C)c2cc(OC)ccn2)C3=O)c(C(F)(F)F)n1`, the pEC50 was 6.33 (KURAMOCHI; cell growth, inhibitor; 120 h).
With `CN(C)CCC(=O)Nc1ccc(C2CCCCC2)cc1` the hepatic clearance was 30 mL/min/kg (liver microsome stability; dog liver microsomes; 1 µM).
With `CCn1c(-c2nonc2N)nc2cncc(C(=O)N3CCNCC3)c21.Cl` the inhibition was 7.9% (Trypanosoma brucei brucei; cell growth; concentration not given, PKIS HTS).
For `Oc1ccccc1-c1n[nH]cc1-c1ccnc2ccccc12`, “log2 fold change” read 0.38 (AKL1 (Candida albicans); kinase binding, MIB/MS competition; Candida albicans lysate; 10 µM; relative to: DMSO).
`N#Cc1ccc2c(-c3ccncc3)c(-c3ccc(F)cc3)nn2c1`: “log2 fold change” 0.179 (kinase binding, competitor, MIB/MS competition, item: SCH9; Candida albicans cell lysate; 1 µM; relative to: DMSO).
Under “fold change in expression”, `Cn1cc(-c2ccc(-c3cncc(Cl)c3N3CCC4(CCNC4=O)CC3)cc2)cn1` is recorded as 1.65 (COLO 205; microarray, item: ATF-3; concentration not given, 2 h; relative to: untreated cells).
`CS(=O)(=O)CCNCc1ccc(-c2ccc3ncnc(Nc4ccc(OCc5cccc(F)c5)c(C(F)(F)F)c4)c3c2)o1` gave a selectivity of 0.9 (Trypanosoma brucei; unit not given; relative to: pEC50 T. brucei minus pTC50 HepG2).
For `Cc1cc(NC(=O)C2CCCN(S(=O)(=O)c3cccc4nonc34)C2)ccc1Br` (stereo not shown), the maximal activity was 35% (Mus musculus; gene silencing, high-content imaging; LDR reporter GFP cells; retest run 2).
For `CCS(=O)(=O)c1ccc(OC)c(Nc2nccc(N(C)c3ccc4c(C)n[nH]c4c3)n2)c1`, the selectivity was over 1.5 (Trypanosoma brucei; unit not given; relative to: pEC50 T. brucei minus pTC50 HepG2).
The maximal activity of `CCN(CC)C(=S)SSC(=S)N(CC)CC` is reported as 78% (Mus musculus; gene silencing, high-content imaging; LDR reporter GFP cells; retest run 2).
For `CC(C)NCC(O)c1ccc(O)c(O)c1` (stereo not shown), the sarcomere length was 1.72 µm (ventricular cardiomyocytes, C57BL/6 mouse; dose not given, 0.728 s).
`OC(CCN1CCCCC1)(c1ccccc1)C1CC2C=CC1C2` (stereo not shown): “change in EEG Beta3-power Pz-O2” 18.2% (resting-state EEG; healthy elderly humans; oral, 2 mg, eyes open, LS mean; relative to: baseline).
The sarcomere length of `O=C(O)CNC(=O)Cc1ccccc1` is reported as 1.67 µm (ventricular cardiomyocytes, C57BL/6 mouse; dose not given, 0.268 s).
With `O=C(Cn1c(=O)n(Cc2ccc(F)cc2)c(=O)c2sc3ccccc3c21)Nc1ccc(F)cc1F` the maximal activity was 61% (Mus musculus; gene silencing, high-content imaging; LDR reporter GFP cells; retest run 2).

For quick reference, copied from above:
`OC(CCN1CCCCC1)(c1ccccc1)C1CC2C=CC1C2` (stereo not shown): “change in EEG Beta3-power Pz-O2” 18.2% (resting-state EEG; healthy elderly humans; oral, 2 mg, eyes open, LS mean; relative to: baseline).
`Fc1ccc(-c2ncn(C3CCNCC3)c2-c2ccnc(Oc3ccc(Oc4ccccc4)cc3)n2)cc1` gave a selectivity of 1 (Trypanosoma brucei; unit not given; relative to: pEC50 T. brucei minus pTC50 HepG2).
For `O=C(c1ccc([C@H]2[C@@H](F)[C@@H](F)C[C@@H](F)[C@H]2F)cc1)N1CC(O)C1`, the hepatic clearance was 7.3 mL/min/kg (liver microsome stability; dog liver microsomes; 1 µM).
`CCc1ccc(Oc2nccc(-c3c(-c4ccc(F)cc4)ncn3C3CCNCC3)n2)cc1` gave a selectivity of 0.8 (Trypanosoma brucei; unit not given; relative to: pEC50 T. brucei minus pTC50 HepG2).
`Nc1cccc2c1C(=O)N(C1CCC(=O)NC1=O)C2=O` (stereo not shown) — result for “surface marker level”: 154% (RPMI-8226; flow cytometry, item: CD183; concentration not given; relative to: comparator compound alone).
`CCCCOC(=O)Cn1c2ccc(OC)cc2c2nc3ccccc3nc21` has a maximal activity of 21% (Mus musculus; gene silencing, high-content imaging; LDR reporter GFP cells; retest run 1).
